# Measurements from different studies.
# Numbered parts are unrelated; each lists some results of a single study. Values joined by “and” are separate records of one study, mostly repeats; a detail may differ.
# Sequence of UniProt O14976 (whole entry, looked up): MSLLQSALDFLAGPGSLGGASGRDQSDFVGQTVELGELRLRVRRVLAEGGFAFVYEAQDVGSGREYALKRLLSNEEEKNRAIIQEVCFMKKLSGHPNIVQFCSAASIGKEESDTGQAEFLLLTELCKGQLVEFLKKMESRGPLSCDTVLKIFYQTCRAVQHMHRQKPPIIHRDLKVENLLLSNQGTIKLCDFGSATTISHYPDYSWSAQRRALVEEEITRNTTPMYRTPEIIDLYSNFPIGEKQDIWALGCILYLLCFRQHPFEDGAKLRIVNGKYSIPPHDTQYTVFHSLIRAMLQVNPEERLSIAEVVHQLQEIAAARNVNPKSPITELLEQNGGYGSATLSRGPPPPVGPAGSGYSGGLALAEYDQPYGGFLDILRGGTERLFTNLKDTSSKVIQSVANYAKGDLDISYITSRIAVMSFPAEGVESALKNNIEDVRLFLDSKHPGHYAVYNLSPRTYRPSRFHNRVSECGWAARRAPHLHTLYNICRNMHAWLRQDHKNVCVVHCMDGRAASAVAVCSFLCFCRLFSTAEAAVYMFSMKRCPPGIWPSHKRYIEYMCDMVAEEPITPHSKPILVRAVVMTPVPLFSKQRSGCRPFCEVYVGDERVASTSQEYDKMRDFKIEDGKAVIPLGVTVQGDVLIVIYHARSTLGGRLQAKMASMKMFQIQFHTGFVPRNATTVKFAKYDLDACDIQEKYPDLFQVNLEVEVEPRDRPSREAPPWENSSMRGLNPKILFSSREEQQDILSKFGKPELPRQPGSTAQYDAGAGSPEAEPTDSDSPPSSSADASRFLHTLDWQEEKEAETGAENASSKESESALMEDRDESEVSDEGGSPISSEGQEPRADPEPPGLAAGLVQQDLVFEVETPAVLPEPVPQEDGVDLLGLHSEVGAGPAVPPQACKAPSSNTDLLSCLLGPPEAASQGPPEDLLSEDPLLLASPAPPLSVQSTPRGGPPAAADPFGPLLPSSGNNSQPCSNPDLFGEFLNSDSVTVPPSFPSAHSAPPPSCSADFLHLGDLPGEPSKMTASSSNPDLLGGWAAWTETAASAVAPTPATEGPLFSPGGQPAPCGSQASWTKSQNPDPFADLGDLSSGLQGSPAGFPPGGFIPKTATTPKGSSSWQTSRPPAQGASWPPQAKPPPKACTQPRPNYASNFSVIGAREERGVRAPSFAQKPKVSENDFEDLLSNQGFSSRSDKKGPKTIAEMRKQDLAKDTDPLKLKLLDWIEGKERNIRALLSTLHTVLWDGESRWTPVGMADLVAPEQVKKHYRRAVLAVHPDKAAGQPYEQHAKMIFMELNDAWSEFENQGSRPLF
# Sequence of UniProt O14936 (whole entry, looked up): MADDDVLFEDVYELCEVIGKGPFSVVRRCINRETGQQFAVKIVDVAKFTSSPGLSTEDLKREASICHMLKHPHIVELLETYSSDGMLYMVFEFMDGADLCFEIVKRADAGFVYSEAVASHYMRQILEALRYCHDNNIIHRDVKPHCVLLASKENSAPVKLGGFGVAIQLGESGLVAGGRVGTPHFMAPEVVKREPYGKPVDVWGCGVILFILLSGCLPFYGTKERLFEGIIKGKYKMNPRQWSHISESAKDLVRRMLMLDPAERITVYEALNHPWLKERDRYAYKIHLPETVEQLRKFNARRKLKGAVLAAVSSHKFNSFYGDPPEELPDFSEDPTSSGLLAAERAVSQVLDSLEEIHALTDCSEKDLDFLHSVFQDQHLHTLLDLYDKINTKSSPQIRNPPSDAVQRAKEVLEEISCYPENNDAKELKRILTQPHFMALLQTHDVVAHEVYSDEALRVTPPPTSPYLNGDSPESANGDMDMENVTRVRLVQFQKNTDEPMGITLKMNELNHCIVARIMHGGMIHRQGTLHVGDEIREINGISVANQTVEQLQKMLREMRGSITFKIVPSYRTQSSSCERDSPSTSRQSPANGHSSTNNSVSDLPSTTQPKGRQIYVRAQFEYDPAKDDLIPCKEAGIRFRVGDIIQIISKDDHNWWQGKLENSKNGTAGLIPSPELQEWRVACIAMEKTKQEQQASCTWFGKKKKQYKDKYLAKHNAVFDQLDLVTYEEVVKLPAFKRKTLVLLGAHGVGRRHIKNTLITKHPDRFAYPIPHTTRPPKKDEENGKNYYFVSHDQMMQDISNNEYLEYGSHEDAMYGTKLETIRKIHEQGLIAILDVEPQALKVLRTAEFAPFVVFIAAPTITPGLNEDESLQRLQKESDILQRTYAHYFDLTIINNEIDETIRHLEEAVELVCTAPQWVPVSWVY
# Sequence of UniProt Q15208 (whole entry, looked up): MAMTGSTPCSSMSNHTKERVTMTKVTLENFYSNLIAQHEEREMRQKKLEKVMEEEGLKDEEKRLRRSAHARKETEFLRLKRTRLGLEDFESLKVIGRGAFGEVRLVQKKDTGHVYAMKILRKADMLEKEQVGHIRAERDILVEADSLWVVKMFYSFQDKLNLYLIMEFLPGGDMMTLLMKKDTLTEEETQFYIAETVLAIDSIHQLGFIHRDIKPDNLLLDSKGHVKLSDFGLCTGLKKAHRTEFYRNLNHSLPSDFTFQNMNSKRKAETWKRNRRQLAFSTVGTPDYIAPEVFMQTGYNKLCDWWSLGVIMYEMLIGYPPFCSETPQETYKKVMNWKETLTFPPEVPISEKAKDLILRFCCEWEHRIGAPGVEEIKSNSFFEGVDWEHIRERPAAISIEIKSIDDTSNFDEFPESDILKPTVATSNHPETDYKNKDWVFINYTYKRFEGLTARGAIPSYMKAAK
# Sequence of UniProt Q9UPZ9 (whole entry, looked up): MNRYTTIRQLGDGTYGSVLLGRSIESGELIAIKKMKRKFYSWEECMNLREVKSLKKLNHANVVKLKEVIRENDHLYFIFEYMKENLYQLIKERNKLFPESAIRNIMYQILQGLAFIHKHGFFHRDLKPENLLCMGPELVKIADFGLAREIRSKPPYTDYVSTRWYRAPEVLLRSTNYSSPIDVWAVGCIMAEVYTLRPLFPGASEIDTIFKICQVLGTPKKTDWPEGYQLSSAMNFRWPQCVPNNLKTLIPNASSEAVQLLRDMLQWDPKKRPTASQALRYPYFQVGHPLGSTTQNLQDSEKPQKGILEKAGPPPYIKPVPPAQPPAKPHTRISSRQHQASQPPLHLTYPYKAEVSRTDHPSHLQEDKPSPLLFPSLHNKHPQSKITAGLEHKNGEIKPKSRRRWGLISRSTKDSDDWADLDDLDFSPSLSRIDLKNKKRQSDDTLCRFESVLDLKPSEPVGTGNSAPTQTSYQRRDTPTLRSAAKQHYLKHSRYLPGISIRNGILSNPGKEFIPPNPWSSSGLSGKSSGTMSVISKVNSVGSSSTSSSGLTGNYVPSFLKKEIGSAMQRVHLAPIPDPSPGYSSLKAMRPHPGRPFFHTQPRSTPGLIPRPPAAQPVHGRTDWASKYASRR

# Series 1
# Organism: Sarcocystis neurona
# Observed: parasite growth
# Tested at: 10 µM
# Time: 96 h
# Setting: second screen
# Reference: untreated
Structure (SMILES),log2 fold change
OCc1cc(C(O)CNCCCCCCOCCCCc2ccccc2)ccc1O (stereo not shown),-0.42
CC(Oc1c(Cl)cccc1Cl)C1=NCCN1 (stereo not shown),0.09
Cn1c(=O)c2[nH]cnc2n(C)c1=O,0.13
C[C@]12CCC(=O)C=C1CC[C@@H]1[C@@H]2[C@@H](O)C[C@@]2(C)[C@H]1CC[C@]2(O)C(=O)CO,0.2
CCC(=O)O[C@]1(C(=O)CCl)[C@@H](C)C[C@H]2[C@@H]3CCC4=CC(=O)C=C[C@]4(C)[C@@]3(F)[C@@H](O)C[C@@]21C,0.12
CCn1cc(C(=O)O)c(=O)c2cc(F)c(N3CCNCC3)cc21,0.3

# Series 2
# SMILES: Nc1c(C(=O)NCc2ccc(C(=O)NCCCC3CCCCC3)cc2)cnn1-c1ccccc1
# Observed: cell-free assay
# Method: competition with immobilised ligand
# Tested at: 0.1 µM
target,remaining binding [%]
"CILK1 (Homo sapiens, UniProt Q9UPZ9)",100
"STK38 (Homo sapiens, UniProt Q15208)",96
"KIT (Homo sapiens, UniProt P10721, L576P)",73
"Non-receptor tyrosine-protein kinase TYK2, JH2 (TYK2, Homo sapiens, UniProt P29597)",88
"GAK (Homo sapiens, UniProt O14976)",100
"CASK (Homo sapiens, UniProt O14936)",78

# Series 3
# SMILES: O=C(NC1CCNCC1)c1n[nH]cc1NC(=O)c1c(Cl)cccc1Cl
# Method: trypan blue exclusion
# Time: 48 h
# Reference: untreated
cell line,tested at,viability
HH,10 µM,0% and 3.05% and 3.06%
HuT78,0.05 µM,107%
HuT78,0.1 µM,103% and 101%
HH,0.5 µM,22.6% and 21.3%
HH,1 µM,19.6% and 16.4%

# Series 4
# Target: Vascular endothelial growth factor receptor 3 (FLT4, Homo sapiens, UniProt P35916)
# Sequence of UniProt P35916 (whole entry, looked up): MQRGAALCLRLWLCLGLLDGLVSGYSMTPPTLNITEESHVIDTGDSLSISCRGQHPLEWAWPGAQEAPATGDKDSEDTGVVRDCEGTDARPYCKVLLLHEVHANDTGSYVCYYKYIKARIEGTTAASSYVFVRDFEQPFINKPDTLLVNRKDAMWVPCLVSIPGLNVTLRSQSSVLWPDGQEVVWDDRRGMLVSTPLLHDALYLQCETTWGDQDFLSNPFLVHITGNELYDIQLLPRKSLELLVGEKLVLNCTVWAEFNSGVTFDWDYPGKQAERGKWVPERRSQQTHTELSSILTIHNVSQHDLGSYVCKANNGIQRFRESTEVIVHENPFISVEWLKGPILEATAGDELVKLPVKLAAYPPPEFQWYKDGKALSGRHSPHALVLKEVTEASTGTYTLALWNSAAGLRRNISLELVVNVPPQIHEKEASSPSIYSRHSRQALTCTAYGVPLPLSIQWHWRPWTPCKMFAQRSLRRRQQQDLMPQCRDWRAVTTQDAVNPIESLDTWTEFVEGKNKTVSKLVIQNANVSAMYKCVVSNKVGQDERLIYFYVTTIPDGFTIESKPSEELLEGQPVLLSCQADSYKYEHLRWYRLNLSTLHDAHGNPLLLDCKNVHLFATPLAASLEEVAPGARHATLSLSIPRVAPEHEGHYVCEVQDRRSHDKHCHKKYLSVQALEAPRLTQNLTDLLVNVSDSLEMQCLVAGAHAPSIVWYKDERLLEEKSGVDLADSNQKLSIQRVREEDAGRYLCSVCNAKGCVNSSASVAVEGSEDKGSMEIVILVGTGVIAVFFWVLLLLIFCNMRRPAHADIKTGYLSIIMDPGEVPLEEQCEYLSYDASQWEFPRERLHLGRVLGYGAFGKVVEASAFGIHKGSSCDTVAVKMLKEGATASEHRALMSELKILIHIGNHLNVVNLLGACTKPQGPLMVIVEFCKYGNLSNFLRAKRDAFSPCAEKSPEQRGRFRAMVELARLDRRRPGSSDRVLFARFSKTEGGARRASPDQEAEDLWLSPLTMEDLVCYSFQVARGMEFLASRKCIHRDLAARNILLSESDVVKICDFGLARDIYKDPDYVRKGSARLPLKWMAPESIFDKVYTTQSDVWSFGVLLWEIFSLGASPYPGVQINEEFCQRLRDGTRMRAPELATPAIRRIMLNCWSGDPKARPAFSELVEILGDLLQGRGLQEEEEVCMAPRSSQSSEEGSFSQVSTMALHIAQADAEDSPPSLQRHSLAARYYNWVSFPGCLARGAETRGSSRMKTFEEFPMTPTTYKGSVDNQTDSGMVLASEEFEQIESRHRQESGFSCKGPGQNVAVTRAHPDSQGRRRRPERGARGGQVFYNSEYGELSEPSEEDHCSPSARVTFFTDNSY
# Observed: enzyme activity
# Mode: inhibitor
# Tested at: 0.5 µM
# Reference: control
Structure (SMILES),remaining activity
N#CC(C#N)=C(N)/C(C#N)=C/c1ccc(O)cc1,95.9%
COc1cc2ncnc(Nc3ccc(Oc4ccccc4)cc3)c2cc1OC,62.5%
NCCNc1ncc(C(N)=O)c(Nc2cccc(C(F)(F)F)c2)n1,82.7%
Cn1sc(=O)n(Cc2ccccc2)c1=O,86.8%
Oc1ccc(-c2nc(-c3ccncc3)c(-c3ccc(F)cc3)[nH]2)cc1,101%
O=C(O)c1ccc2c3c1cccc3c(=O)n1c3ccccc3nc21,82.5%
COc1cc2nccc(Oc3ccc(NC(=S)NC(=O)c4ccccc4C)cc3)c2cc1OC,73.8%
CC(C)[C@H](CO)Nc1nc(Nc2cc(N)cc(Cl)c2)c2ncn(C(C)C)c2n1,80.7%
Nc1ccc2ncnc(NCCc3ccc(Oc4ccccc4)cc3)c2c1,101%
COc1ccc(CNC(=O)Nc2ncc([N+](=O)[O-])s2)cc1,91.2%
CN(C)c1ccc(C=C2C(=O)Nc3ccccc32)cc1,98.8%
Cc1nc(-c2ccccc2)c(-c2ccncc2)o1,108%
C#Cc1cccc(Nc2ncnc3cc(OCCOC)c(OCCOC)cc23)c1,73.5%
O=c1c2ccccc2[nH]c(=S)n1CCN1CCC(=C(c2ccc(F)cc2)c2ccc(F)cc2)CC1,107%

# Some of these lines once more (series 3):
cell line,tested at,viability
HH,1 µM,19.6% and 16.4%
HH,10 µM,0% and 3.05% and 3.06%
HuT78,0.05 µM,107%
HuT78,0.1 µM,103% and 101%
